Experimental data pooled from the literature.
Each numbered part is a random draw from the data of one study; scales do not carry over between parts. Substitutions count along the parent as printed.
Sequence of UniProt P23975 (whole entry, looked up): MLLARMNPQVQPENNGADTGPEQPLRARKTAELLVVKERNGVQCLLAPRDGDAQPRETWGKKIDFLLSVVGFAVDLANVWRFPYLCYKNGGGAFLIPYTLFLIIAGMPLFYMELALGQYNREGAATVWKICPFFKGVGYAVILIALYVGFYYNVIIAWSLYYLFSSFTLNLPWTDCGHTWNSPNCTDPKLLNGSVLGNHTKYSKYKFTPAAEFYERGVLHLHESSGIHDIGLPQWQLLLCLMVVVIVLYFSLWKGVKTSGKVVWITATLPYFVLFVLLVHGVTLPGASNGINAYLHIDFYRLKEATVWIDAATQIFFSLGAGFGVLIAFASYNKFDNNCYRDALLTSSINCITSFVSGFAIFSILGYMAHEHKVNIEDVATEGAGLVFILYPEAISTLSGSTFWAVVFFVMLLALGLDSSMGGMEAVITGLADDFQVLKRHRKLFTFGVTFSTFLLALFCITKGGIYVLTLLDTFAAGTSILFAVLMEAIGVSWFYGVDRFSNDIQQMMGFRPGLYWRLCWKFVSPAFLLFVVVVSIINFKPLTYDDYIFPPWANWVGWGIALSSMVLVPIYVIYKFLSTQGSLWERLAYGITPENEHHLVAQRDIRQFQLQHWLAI
Sequence of UniProt P35372 (whole entry, looked up): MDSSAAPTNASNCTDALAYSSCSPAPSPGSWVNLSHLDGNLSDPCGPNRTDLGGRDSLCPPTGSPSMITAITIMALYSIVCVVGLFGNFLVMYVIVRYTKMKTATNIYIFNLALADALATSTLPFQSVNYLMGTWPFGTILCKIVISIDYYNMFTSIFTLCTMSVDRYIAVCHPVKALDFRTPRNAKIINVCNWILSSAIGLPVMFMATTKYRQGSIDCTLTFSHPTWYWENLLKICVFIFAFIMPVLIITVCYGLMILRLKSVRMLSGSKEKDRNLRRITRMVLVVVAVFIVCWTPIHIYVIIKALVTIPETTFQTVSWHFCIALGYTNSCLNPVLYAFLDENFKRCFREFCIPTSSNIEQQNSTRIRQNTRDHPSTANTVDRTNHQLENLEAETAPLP

Series 1 — read-out: peptide-MHC binding; form: peptide; tested at: concentration not given
Target: HLA class I histocompatibility antigen, A alpha chain, allele A*80:01 (Homo sapiens, UniProt P04439)
| Sequence | binding |
| --- | --- |
| MTTTANWLW | inactive |
| SLLHESTLK | inactive |
| HPYVFCALL | inactive |
| MQDVFTFYV | inactive |
| KRLQILGYL | inactive |
| YITDYSNDI | inactive |
| ETKKRMDYF | inactive |
| MPDTLFEGV | inactive |

Series 2 — target: CCNB2, cyclin fold, Cln2 fusion (human); method: yeast growth competition, sequencing; matrix: yeast; notes: strong parent motif; reference: not given; reading: higher = stronger binding; parent: viral docking peptide; TSVRRALFTGGSD
| Change | normalised enrichment score |
| --- | --- |
| L7G | 0.154 |
| S2F | 0.0274 |
| T9K | 1.1 |
| D13A | 0.784 |
| G11K | 0.786 |
| T9Y | 0.914 |
| S12R | 0.969 |
| T9G | 0.707 |

Further values, each from its own experiment
| Structure (SMILES) | tested on | assay | setting | how to read | endpoint | result |
| --- | --- | --- | --- | --- | --- | --- |
| CNCc1ccccc1-c1csc([C@@H](C)Nc2nc(C)nc3cc(OC)c(OC)cc23)c1 | OPRM1 (Homo sapiens, UniProt P35372) | cell-free assay | 10 µM | – | inhibition | 46.8% |
| CCCCCCCCCC(=O)O[C@H]1CC[C@H]2[C@@H]3CCC4=CC(=O)CC[C@@H]4[C@H]3CC[C@]12C | HEK-293T/ACE2 | Hoechst nuclei count | concentration not given, 16 (unit not given) | reference: vehicle | viability | 106% |
| CC(=O)N1CCC(c2ccc(C(=O)NC3=NCCN3)cc2C(F)(F)F)CC1 | SLC6A2 (Homo sapiens, UniProt P23975) | ligand displacement | 10 µM | – | inhibition | 21.5% |
| CCCN(CCC)CCc1cccc2c1CC(=O)N2 | HEK-293T/ACE2 | Hoechst nuclei count | concentration not given, 16 (unit not given) | reference: vehicle | viability | 99.5% |

Some of these lines once more (series 2):
| Change | normalised enrichment score |
| --- | --- |
| S2F | 0.0274 |
